Measurements pooled from the literature.
Each line is one published result; not all experiments were run side by side.
Target: Mitogen-activated protein kinase 15 (MAPK15, Homo sapiens, UniProt Q8TD08)

CN1CCN(Cc2ccc(-c3ccc(CO[C@H]4CCC[C@@H]4NC(=O)c4cc(-c5cnn(C)c5)cnc4N)cc3)cc2)CC1  inhibition (enzyme activity, inhibitor; 0.1 µM): 0%
CCn1cc(C(=O)O)c(=O)c2c(N)c(F)c(NC3CCCCC3)cc21  inhibition (kinase activity; 0.1 µM, with: ATP at Km): 14.6%
COc1ccc(O)cc1-c1c[nH]c2ncc(-c3cncc(C(=O)N(C)C)c3)cc12  inhibition (binding, competition with immobilised ligand; 0.2 µM): -7.46%
O=C(Nc1cc(-c2ccnc3[nH]ccc23)c(Cl)cn1)[C@H]1CCC[C@@H](NC(=O)C(F)(F)F)C1  remaining binding (binding, competition with immobilised ligand; 0.1 µM): 28%
COc1c(Cl)cccc1Nc1c(-c2ccncc2C#C[C@@]2(C)CCCN2C(=O)/C=C/CN(C)C)[nH]c2c1C(=O)NCC2  remaining binding (binding, competition with immobilised ligand; 3 µM): 100%
C=CC(=O)N1CCCC(n2c(=O)c3ncccc3n(Cc3ccc(Oc4ccccc4)cc3)c2=O)C1 (stereo not drawn)  remaining binding (cell-free assay, competition with immobilised ligand; 1 µM): 94%
Nc1ncc(-c2cc(-c3cnn(CC(F)(F)F)c3)ncc2F)nc1C(=O)NC1CNCC(F)C1 (stereo not drawn)  remaining activity (enzyme activity; 1 µM; baseline: DMSO control): 80.6%
CCN1CCN(Cc2ccc(C(=O)Nc3ccc(C)c(NCc4cnc5[nH]ccc5c4OC)c3)cc2C(F)(F)F)CC1  remaining binding (binding, competition with immobilised ligand; 1 µM): 88%
Cc1cnc2nc1Nc1cccc(c1)COC/C=C/COCc1cc(ccc1OCCN1CCOCC1)N2  remaining binding (binding, competition with immobilised ligand; 0.1 µM): 100%
Cc1cccc(-c2ccc3nc(NC(=O)C4CCCCC4)nn3c2)c1  remaining activity (enzyme activity, Dundee kinase panel; 10 µM): 77%
Cc1ccc(-c2c(/C=C(\C#N)C(=O)NC(C)C)n(CCCO)c3ncnc(N)c23)cc1  remaining binding (cell-free assay, competition with immobilised ligand; 1 µM): 99%
COc1cc(Nc2nccc(-c3cnn4nc(OC)ccc34)n2)cc(C(F)(F)F)c1  remaining binding (binding, competition with immobilised ligand; 1 µM): 21%
Nc1ncc2c(n1)-c1c([nH]c3ccc(C4=CCOCC4)cc13)CCC2  remaining binding (binding, competition with immobilised ligand; 1 µM): 100%
CNC1C[S+]2CC[S+]3CC[S+](C1)[Ru-4]321([N]=C=S)[n]2c3ccc(OC)cc3c3c4c(c5cc(F)c[n+]1c5c32)C(=O)NC4=O (stereo not drawn)  remaining binding (KinomeScan; 0.1 µM; baseline: untreated): 100%
COc1cc(Nc2nc(C)cc(-c3cnn4nc(OC)ccc34)n2)cc(C(F)(F)F)c1  remaining binding (binding, competition with immobilised ligand; 1 µM): 96%
C=CC(=O)N1CCc2ccc(-n3c(=O)ccc4cnc5ccc(-c6cnn(C)c6)cc5c43)cc21  remaining binding (KINOMEscan; 1 µM; baseline: DMSO control): 100%
CNC(=O)C1CCN(c2cc(C)c(F)cc2NC(=O)c2ccc(-c3cc(O)ccc3C)c(C)c2)CC1  remaining binding (binding, competition with immobilised ligand; 1 µM): 99%
C=CC(=O)N1Cc2nc(-c3cc(-c4cc(Cl)cnc4Cl)c(F)cc3F)n(-c3ccncn3)c2C1  inhibition (cell-free assay, inhibitor; 1 µM): 2.9%
Nc1nc(Nc2ccccc2)sc1C(=O)c1ccccc1  remaining activity (enzyme activity, inhibitor; 10 µM): 9%
Cc1ccc(C)c(-c2ccc3nc(NC(=O)C4CCCCC4)nn3c2)c1  remaining activity (enzyme activity, Dundee kinase panel; 10 µM): 72%
CC(C)=CC1OC(C)(C)C2C=C3C(=O)C(Cl)=CC(O)C3C3C(O)C4OC4C(=O)C132 (stereo not drawn)  remaining binding (cell-free assay, competition with immobilised ligand; 10 µM): 92%
